Published values collected from several papers.

| SMILES | test | system | setting | endpoint | result |
| --- | --- | --- | --- | --- | --- |
| C[C@@H](c1ccc2nccn2c1)n1nnc2ncc(-c3cnn(C)c3)nc21 | measured: AST increased | EGFR-mutant MET-altered NSCLC patients | oral, dose not given, AE grade ≥3, all | incidence of treatment-related AEs | 4% |
| CCO[C@H]1CCN(Cc2c(OC)cc(C)c3[nH]ccc23)[C@H](c2ccc(C(=O)O)cc2)C1 | – | PNH patients, active haemolysis | oral, 200 mg, 8 weeks, treatment | incidence of GGT increase | 0% |
| NCCONC(=O)[C@@H]1CC[C@@H]2CN1C(=O)N2OS(=O)(=O)O | – | healthy Chinese male subjects | intravenous, 1 g | incidence of any adverse event | 62.5% |
| C[C@@H](N)C1CCN(S(=O)(=O)c2cccc3cnccc23)CC1 | – | healthy volunteers | oral, 25 mg, single ascending dose, fasted | incidence of syncope | 0% |
| O=C(Nc1nc2cccc(-c3ccc(CN4CCS(=O)(=O)CC4)cc3)n2n1)C1CC1 | – | rheumatoid arthritis patients | oral, 75 mg once daily, 4 weeks, TEAE regardless of relatedness | incidence of gastritis | 0% |
| C=CC(=O)Nc1cc(Nc2nccc(-c3cn(C)c4ccccc34)n2)c(OC)cc1N(C)CCN(C)C | measured: decreased appetite | EGFR-mutant MET-altered NSCLC patients | oral, dose not given, AE grade ≥3, all | incidence of treatment-related AEs | 2% |
| COc1ccc([C@@H](O)c2cc(-c3ncnc4cc(N5CCOCC5)ccc34)c(F)cc2Cl)nn1 | – | locally advanced rectal cancer | oral, 250 mg, with: capecitabine and radiotherapy | incidence of proctalgia TEAE | 17% |
| NC1(C(=O)N[C@@H](CCO)c2ccc(Cl)cc2)CCN(c2nc[nH]c3nccc2-3)CC1 | – | metastatic CRPC patients | 400 mg b.i.d., any grade, treatment-related, with: enzalutamide 160 mg daily | incidence of white blood cell decreased | 14.3% |

Some of these lines once more:
| SMILES | test | system | setting | endpoint | result |
| --- | --- | --- | --- | --- | --- |
| C[C@@H](N)C1CCN(S(=O)(=O)c2cccc3cnccc23)CC1 | – | healthy volunteers | oral, 25 mg, single ascending dose, fasted | incidence of syncope | 0% |
